Assay results pooled from the literature.
Protocols differ between the studies behind these lines.
Target: Fibroblast growth factor receptor 4 (FGFR4, Homo sapiens, UniProt P22455)

| SMILES | test | setting | how to read | endpoint | value |
| --- | --- | --- | --- | --- | --- |
| Cc1cccc(O[C@H]2CCC[C@@H](C(C)CNCc3ccncc3)C2)c1 (relative stereo) | cell-free assay | 10 µM |  | inhibition | 0% |
| COc1c(Cl)cccc1Nc1c(-c2ccncc2C#C[C@@]2(C)CCCN2C(=O)/C=C/CN(C)C)[nH]c2c1C(=O)NCC2 | cell-free assay, competition with immobilised ligand | 3 µM |  | remaining binding | 98% |
| NC(=O)[C@@H](O)C[C@H]1CCc2sc3ncnc(O[C@H]4CC[C@H](N5CCOCC5)CC4)c3c21 | enzyme activity, inhibitor | 10 µM |  | inhibition | 3% |
| COc1cc(Nc2nccc(-c3cnn4nc(OC)ccc34)n2)cc(C(F)(F)F)c1 | binding, competition with immobilised ligand | 1 µM |  | remaining binding | 86% |
| CC(C)=CC1OC(C)(C)C2C=C3C(=O)C(Cl)=CC(O)C3C3C(O)C4OC4C(=O)C132 (centres unmarked) | cell-free assay, competition with immobilised ligand | 10 µM |  | remaining binding | 92% |
| C=CC(=O)N1CCCC(n2c(=O)c3ncccc3n(Cc3ccc(Oc4ccccc4)cc3)c2=O)C1 (centres unmarked) | cell-free assay, competition with immobilised ligand | 1 µM |  | remaining binding | 100% |
| Cc1ccc(-c2c(/C=C(\C#N)C(=O)NC(C)C)n(CCCO)c3ncnc(N)c23)cc1 | cell-free assay, competition with immobilised ligand | 1 µM |  | remaining binding | 99% |
| CNC(=O)C[C@H](Cc1ccc(C#N)cc1)NC(=O)c1cc(-c2ccc(CN[C@H](C)c3ccc(C)cc3)o2)ccc1Cl | enzyme activity, inhibitor | 1 µM |  | activity vs control | 108% |
| CCn1cc(C(=O)O)c(=O)c2c(N)c(F)c(NC3CCCCC3)cc21 | kinase activity | 0.1 µM, together with: ATP at Km |  | inhibition | 2.9% |
| Cc1nc2c(F)cc(-c3nc(Nc4ccc(CNC(=O)CCCCCCC(=O)NO)cc4)ncc3F)cc2n1C(C)C | enzyme activity, inhibitor | 1 µM |  | inhibition | 2% |
| C=CC(=O)Nc1cccc(-c2cnc3[nH]cc(C(=O)NC(C)(C)C)c3n2)c1 | enzyme activity, inhibitor | 0.1 µM |  | inhibition | 10% |
| CNC1C[S+]2CC[S+]3CC[S+](C1)[Ru-4]321([N]=C=S)[n]2c3ccc(OC)cc3c3c4c(c5cc(F)c[n+]1c5c32)C(=O)NC4=O (centres unmarked) | KinomeScan | 0.1 µM | relative to: untreated | remaining binding | 100% |
| O=C(Nc1ccc(Oc2ncnc3[nH]cc(-c4ccccc4)c23)c(F)c1)c1c2n(n(-c3cc(F)ccc3F)c1=O)CCCC2 | enzyme activity, inhibitor | 0.5 µM |  | inhibition | -3% |
| Nc1ncc(-c2cc(-c3cnn(CC(F)(F)F)c3)ncc2F)nc1C(=O)NC1CNCC(F)C1 (centres unmarked) | enzyme activity | 1 µM | relative to: DMSO control | remaining activity | 104% |
| Cc1[nH]nc2c1N=C(c1ccccc1Cl)c1cnc(N3CCOCC3)cc1N2 | enzyme activity, inhibitor | 0.5 µM |  | inhibition | 69.8% |
| Nc1ncc2c(n1)-c1c([nH]c3ccc(C4=CCOCC4)cc13)CCC2 | binding, competition with immobilised ligand | 1 µM |  | remaining binding | 100% |
| C[C@H]1CN(C(=O)c2cn(-c3ccnc(N)n3)c3cc(C#CC4(O)CCCCC4)ccc23)CCN1 | enzyme activity, inhibitor, FRET | 1 µM |  | inhibition | -11% |
